Assay results of several laboratories.
Numbered parts are unrelated; each lists some results of a single study.

Block 1
Target: PABPC1L2, full length, GST fusion (mouse, UniProt A0ABA7IW68)
Technique: RNAcompete
Form: RNA
Medium: in vitro
Tested at: 20 nM
Notes: 7-mer, probes averaged, single round
Relative to: mean of 7-mers
Direction: higher = stronger binding
Target sequence (chain): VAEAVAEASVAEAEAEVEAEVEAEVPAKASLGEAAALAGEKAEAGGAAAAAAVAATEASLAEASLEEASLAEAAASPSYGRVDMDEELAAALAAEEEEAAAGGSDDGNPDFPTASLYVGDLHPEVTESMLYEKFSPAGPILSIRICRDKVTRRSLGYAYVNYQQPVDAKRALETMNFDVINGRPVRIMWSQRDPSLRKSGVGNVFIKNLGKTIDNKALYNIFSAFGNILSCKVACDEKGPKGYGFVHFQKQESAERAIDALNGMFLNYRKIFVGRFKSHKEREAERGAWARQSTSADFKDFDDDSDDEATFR
The 7-mer Z-score of `UAACAAC` is reported as -0.0264.
`UUCGGUA` gave a 7-mer Z-score of -0.235.
`GAUCGGG` has a 7-mer Z-score of -0.0101.
With `GCCAGUC` the 7-mer Z-score was -0.296.
`CUCGAGU` gave a 7-mer Z-score of -0.347.
With `UCUGGGU` the 7-mer Z-score was -0.168.
`AGGACCU` gave a 7-mer Z-score of -0.113.
The 7-mer Z-score of `UUGGAGU` is reported as -0.238.
The 7-mer Z-score of `GCUGGAU` is reported as -0.0156.
`AGACAUU` has a 7-mer Z-score of -0.168.
For `AACGUGG`, the 7-mer Z-score was 0.407.
The 7-mer Z-score of `AGCACGC` is reported as -0.112.
For `CGUUACC`, the 7-mer Z-score was -0.286.
With `ACCUUGA` the 7-mer Z-score was -0.217.
`CCGACGC` gave a 7-mer Z-score of -0.255.
For `GAGUGGC`, the 7-mer Z-score was 0.066.
`CCAUGCU` gave a 7-mer Z-score of -0.338.
`AAUGGUU` has a 7-mer Z-score of -0.0138.

Block 2
Target: Sal-like protein 4, full length isoform A (SALL4, Homo sapiens, UniProt Q9UJQ4, residues 1-1053)
Sequence of UniProt Q9UJQ4 (whole entry, looked up): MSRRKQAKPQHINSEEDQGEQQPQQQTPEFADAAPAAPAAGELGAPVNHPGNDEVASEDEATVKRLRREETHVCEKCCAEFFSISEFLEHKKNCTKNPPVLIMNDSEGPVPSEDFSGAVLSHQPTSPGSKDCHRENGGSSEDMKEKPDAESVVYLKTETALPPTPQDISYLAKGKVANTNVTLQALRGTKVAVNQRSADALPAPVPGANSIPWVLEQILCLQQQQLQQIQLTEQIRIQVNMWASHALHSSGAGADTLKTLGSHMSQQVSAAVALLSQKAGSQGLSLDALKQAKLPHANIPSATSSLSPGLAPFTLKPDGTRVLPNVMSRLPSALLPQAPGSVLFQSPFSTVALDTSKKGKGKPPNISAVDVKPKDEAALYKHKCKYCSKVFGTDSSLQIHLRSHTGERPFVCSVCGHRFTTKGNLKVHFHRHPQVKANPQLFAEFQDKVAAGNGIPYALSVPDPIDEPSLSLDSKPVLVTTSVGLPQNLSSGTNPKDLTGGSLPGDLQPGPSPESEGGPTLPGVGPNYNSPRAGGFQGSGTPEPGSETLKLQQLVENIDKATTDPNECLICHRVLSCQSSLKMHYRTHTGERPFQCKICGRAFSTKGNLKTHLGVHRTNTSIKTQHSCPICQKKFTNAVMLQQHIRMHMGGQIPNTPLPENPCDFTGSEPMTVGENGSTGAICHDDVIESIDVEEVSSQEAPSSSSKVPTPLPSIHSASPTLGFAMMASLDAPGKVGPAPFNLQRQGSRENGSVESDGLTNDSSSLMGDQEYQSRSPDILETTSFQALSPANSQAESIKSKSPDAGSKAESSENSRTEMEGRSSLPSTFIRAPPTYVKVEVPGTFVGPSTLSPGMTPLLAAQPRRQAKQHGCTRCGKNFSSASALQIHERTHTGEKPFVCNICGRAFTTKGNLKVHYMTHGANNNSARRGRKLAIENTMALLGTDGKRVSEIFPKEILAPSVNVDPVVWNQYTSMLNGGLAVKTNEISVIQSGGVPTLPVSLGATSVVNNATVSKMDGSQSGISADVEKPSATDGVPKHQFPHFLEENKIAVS
Technique: universal PBM
Form: double-stranded DNA, one strand shown
Medium: in vitro
Tested at: 600 nM
Notes: 8-mer, flanks averaged, mean of replicates
Direction: higher = stronger binding
`CGGCTGAA` has an E-score of -0.169.
The E-score of `ACGCAGCC` is reported as -0.279.
With `CCAGTTTA` the E-score was 0.0266.
For `CCGGCCAA`, the E-score was -0.307.
For `GTTTTAAA`, the E-score was 0.24.
The E-score of `AAAACGAA` is reported as 0.177.
The E-score of `ATACCGGG` is reported as -0.0719.
For `GGTGCACA`, the E-score was -0.168.
The E-score of `CGTTTGAG` is reported as -0.00176.
`AGCGGCAT` gave an E-score of -0.118.
`AACGTCGT` gave an E-score of -0.0869.
With `ACCTTTTG` the E-score was -0.0435.
The E-score of `CCTCAGTC` is reported as -0.232.
With `AGCGACTG` the E-score was -0.0588.
`GCACCGGA` has an E-score of -0.282.
The E-score of `ACTCTCCA` is reported as 0.117.
With `CCTCAAAG` the E-score was -0.116.
`CCGGGAGG` has an E-score of -0.338.

Block 3
Target: Histone acetyltransferase KAT6A, both winged helices, GST fusion (KAT6A, Homo sapiens, UniProt Q92794, residues 1-181)
Technique: protein binding microarray
Form: double-stranded DNA, one strand shown
Medium: in vitro
Tested at: not given
Notes: 8-mer, flanks averaged, mean of 2 arrays, mostly near background
Relative to: not given
Direction: higher = stronger binding
Target sequence (chain): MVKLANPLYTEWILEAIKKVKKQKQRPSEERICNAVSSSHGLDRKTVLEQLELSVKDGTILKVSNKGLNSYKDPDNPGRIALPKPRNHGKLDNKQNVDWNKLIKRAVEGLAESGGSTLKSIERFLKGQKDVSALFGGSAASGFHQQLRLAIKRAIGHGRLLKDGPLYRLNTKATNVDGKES
For `CCTAGTAG`, the E-score was -0.163.
`ATCTTAAG` gave an E-score of -0.128.
`ACCCTGTA` gave an E-score of -0.123.
For `CTGTACAC`, the E-score was 0.0718.
The E-score of `TGATCTAA` is reported as -0.135.
The E-score of `TAGGTTAA` is reported as -0.116.
`GCTGGATA` has an E-score of -0.127.
The E-score of `CCCACATC` is reported as -0.261.
`ATTATTGC` has an E-score of 0.0396.
With `CTAACTAA` the E-score was -0.0348.
For `AGCAGACC`, the E-score was -0.0481.
The E-score of `ATCACAGA` is reported as -0.139.
The E-score of `ATCAACCC` is reported as 0.0196.
The E-score of `CGGAGTAA` is reported as 0.0765.
`GCTTCTTA` has an E-score of -0.133.
The E-score of `ATGAGGAG` is reported as -0.0381.
`AGTACCGG` gave an E-score of 0.118.
The E-score of `GAGTACAA` is reported as -0.0737.
With `AAGTCCAG` the E-score was -0.0894.
For `GTACTTTA`, the E-score was -0.126.
The E-score of `ATATTAAC` is reported as 0.0773.
For `ATCGAGAT`, the E-score was -0.116.
With `AAGACAGA` the E-score was -0.00796.
For `ATTCCCGA`, the E-score was 0.0637.
`ATGATTGC` has an E-score of 0.0153.

Block 4
Target: Interferon regulatory factor 7, full length, phosphomimetic (IRF7, Homo sapiens, UniProt Q92985, residues 1-503, S471D/S472D/S475D/S476D/S477D/S483D/S484D/S487D)
Technique: protein-binding microarray
Form: double-stranded DNA, one strand shown
Medium: in vitro
Tested at: 2200 nM top
Notes: 60-bp whole probe
With: salmon DNA 0.4 mg/ml
Relative to: random background probes
Direction: higher = stronger binding
Shared flanks, not repeated: GCCTAGCAC … GTCTTGATTCGCTTGACGCTGCTG
Construct (chain): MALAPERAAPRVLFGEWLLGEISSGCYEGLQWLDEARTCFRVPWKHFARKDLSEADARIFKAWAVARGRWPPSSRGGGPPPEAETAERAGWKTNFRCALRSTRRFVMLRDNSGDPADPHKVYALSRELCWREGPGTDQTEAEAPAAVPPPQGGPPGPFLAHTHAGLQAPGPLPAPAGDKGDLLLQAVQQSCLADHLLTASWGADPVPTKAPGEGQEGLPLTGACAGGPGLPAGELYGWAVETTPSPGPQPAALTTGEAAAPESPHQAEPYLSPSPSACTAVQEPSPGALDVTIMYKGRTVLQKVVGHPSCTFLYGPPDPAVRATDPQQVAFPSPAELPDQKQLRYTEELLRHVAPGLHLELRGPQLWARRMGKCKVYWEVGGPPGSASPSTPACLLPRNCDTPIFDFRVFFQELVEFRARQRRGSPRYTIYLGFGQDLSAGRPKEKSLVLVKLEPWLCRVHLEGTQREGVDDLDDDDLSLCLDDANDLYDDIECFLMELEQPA
`TCATAATTCACTATTACACTGTGCTAG`: “fitted relative affinity” 0.913 z-score.
Under “fitted relative affinity”, `CCCGATATGCGGTAAGGGCGCGTGCTA` is recorded as -0.371 z-score.
Under “fitted relative affinity”, `TCCATTTTCTGAATGCTACTGTGCTAG` is recorded as 4.7 z-score.
`GATGAAGATGTAGAACTTTTGTGCTAG` — result for “fitted relative affinity”: -0.431 z-score.
`TTAGATTTCAGTCTGGATTAGTGCTAG` — result for “fitted relative affinity”: 0.419 z-score.
For `TCAGGTGTCTTTTGTGGAACTGTGCTA`, “fitted relative affinity” read 0.279 z-score.
`TTAGATATCGGAACTGGATTAGTGCTA` — result for “fitted relative affinity”: -0.191 z-score.
`GACGGTATCGGGACTGGGGAAGTGCTA`: “fitted relative affinity” -0.563 z-score.
For `CCCACTTTCACTTCTCCCTTGTGCTAG`, “fitted relative affinity” read 11.6 z-score.
`TTAGGTTTCGACTTGCGGTTAGTGCTA` — result for “fitted relative affinity”: 8.89 z-score.
`GGAAATATTTACCTCTCACGGTGCTAG` — result for “fitted relative affinity”: 0.495 z-score.
`TCGCCTTTTTTGTTGTTTTTGTGCTAG`: “fitted relative affinity” 2.59 z-score.
Under “fitted relative affinity”, `GACGGTCTCGGTATCGGGTCGTGCTAG` is recorded as 0.651 z-score.
Under “fitted relative affinity”, `GGCGGTTTCGGTATCGGGACGTGCTAG` is recorded as 7.74 z-score.
`TTAGATATCAGGATCGATTAGTGCTAG` — result for “fitted relative affinity”: -0.0155 z-score.
Under “fitted relative affinity”, `TAACTTTTTTTTTTCCCTGAGTGCTAG` is recorded as 1.58 z-score.
`GACGGACTGGGGACTGGGGAGGTGCTA` — result for “fitted relative affinity”: -0.557 z-score.
For `TTATATATCAGTTTCGATTAGTGCTAG`, “fitted relative affinity” read 6.46 z-score.
For `TTAGATTTGGGGTTTCGATTAGTGCTA`, “fitted relative affinity” read 2.85 z-score.

Block 5
Target: RNA binding protein fox-1 homolog 2, RRM domain, GST-SBP tag (RBFOX2, Homo sapiens, UniProt O43251-10, residues 100-194)
Technique: RNA Bind-n-Seq
Form: RNA
Medium: in vitro
Tested at: 365 nM
Notes: natural RNA segment, single round, ends assumed
Relative to: no-protein control
Direction: higher = stronger binding
Shared flanks, not repeated: GGGAGUUCUACAGUCCGACGAUC … UGGAAUUCUCGGGUGCCAA
Target sequence (chain): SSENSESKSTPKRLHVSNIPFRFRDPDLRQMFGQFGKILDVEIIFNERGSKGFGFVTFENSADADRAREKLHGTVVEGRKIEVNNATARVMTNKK
`UUUCUCUUUGACCUAGAGGUUUCACAUCAUAGCAAGGAGGGAAAAGUCUCCCCAUCUCCUUACAACUGUGUGCUAAGUAAGUAACUUGGCCAAGGGUAGUUUUCAGCUCA`: “RBNS enrichment (R)” 0.464.
For `UACUUUGUCCAUAAAAUUAUAAUUGUUUAUGUAAUUUUAUUGUUUCUUAUGGAAACAAUUGGAAAAGUAUAUGGAAAAUGAUUAUUUCAAAGAAUAUUUAUUUAAAGAGG`, “RBNS enrichment (R)” read 0.582.
`UGAAAACCAAUCAAUUACUAGAUGAGUGGAUGGAUGCAGAAAAAUCUGGGCUGAGCCAAAGUCCCUUUUGGAAAUACAAGCCAUAACAUUCGAAGGACAUCAGCGACCUU` — result for “RBNS enrichment (R)”: 0.228.
`GGCUGGAAAAGGCCGUUUGCCUCACACAUUGUAACCUGCCUUGGCUAGAAAAUGCUUUUAAUGUCUCAACUCUCUCUUUUCUGUGUCAUGUUUUGGUAGGAAAUCUUUAA` — result for “RBNS enrichment (R)”: 0.388.
For `CCACUAAGCUGUGUCUUGUUCAUGCCCCCUGCUCAGUGAAAGGUGAGUCCCGAGACCAGUUGGGUACCUCUCUAUGCGAACCAGAGACAUUUCUGGAUCCAGGCCAGGUG`, “RBNS enrichment (R)” read 1.03.
`UCUAGUCUUACAGCUGAAAAUUGACCUCUGCCUUCCCCCAUCCCUUACUUUUUUUAGAUCCCUGUCUCCAGAAUCUCCCCGAUGCUGUUUUCUACAUCACAGGUCUCUCC` — result for “RBNS enrichment (R)”: 0.527.
`UCUGUACAAACUUUGGGCCCGAUUCAUAAGAAAAAGAAGUUUGCUAUUAACACGGGAUUUUUUUAAUAUACUUUUUUUGGUCUAAAUUUGAAAUUACUUGCUUCCCAAAU`: “RBNS enrichment (R)” 1.06.
For `CAAGCAAUCCAGCCUCAUGGGAAGUCCUGGCACAGUUUUUGUAAAGCCCUUGCACAGCUGGAGAAAUGGCAUCAUUAUAAGCUAUGAGUUGAAAUGUUCUGUCAAAUGUG`, “RBNS enrichment (R)” read 0.458.

Excerpt of the above (block 1):
For `CGUUACC`, the 7-mer Z-score was -0.286.
The 7-mer Z-score of `AGCACGC` is reported as -0.112.
With `GCCAGUC` the 7-mer Z-score was -0.296.
`AAUGGUU` has a 7-mer Z-score of -0.0138.
`GAUCGGG` has a 7-mer Z-score of -0.0101.
`UUCGGUA` gave a 7-mer Z-score of -0.235.
`AGACAUU` has a 7-mer Z-score of -0.168.
The 7-mer Z-score of `GCUGGAU` is reported as -0.0156.
For `AACGUGG`, the 7-mer Z-score was 0.407.
The 7-mer Z-score of `UUGGAGU` is reported as -0.238.
`CCGACGC` gave a 7-mer Z-score of -0.255.
The 7-mer Z-score of `UAACAAC` is reported as -0.0264.
`CUCGAGU` gave a 7-mer Z-score of -0.347.
